Measurements collected from several papers.
Lines come from different studies, so protocols differ. ± marks the error that the study gave.
NR1I2: Nuclear receptor subfamily 1 group I member 2 (NR1I2, Homo sapiens, UniProt O75469)
Sequence of UniProt O75469 (whole entry, looked up): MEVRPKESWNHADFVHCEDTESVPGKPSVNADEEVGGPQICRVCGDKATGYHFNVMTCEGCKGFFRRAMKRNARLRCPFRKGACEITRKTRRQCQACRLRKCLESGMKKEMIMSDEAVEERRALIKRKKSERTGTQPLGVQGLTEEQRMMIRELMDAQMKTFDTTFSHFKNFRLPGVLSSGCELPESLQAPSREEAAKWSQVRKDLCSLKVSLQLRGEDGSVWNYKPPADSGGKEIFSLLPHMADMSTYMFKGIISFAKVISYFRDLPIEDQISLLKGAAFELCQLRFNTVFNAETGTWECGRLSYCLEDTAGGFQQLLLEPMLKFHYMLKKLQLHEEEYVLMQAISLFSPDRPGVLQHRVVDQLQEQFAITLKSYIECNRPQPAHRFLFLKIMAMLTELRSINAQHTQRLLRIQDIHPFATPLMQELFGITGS
CYP2A6: Cytochrome P450 2A6 (CYP2A6, Homo sapiens, UniProt P11509)
Sequence of UniProt P11509 (whole entry, looked up): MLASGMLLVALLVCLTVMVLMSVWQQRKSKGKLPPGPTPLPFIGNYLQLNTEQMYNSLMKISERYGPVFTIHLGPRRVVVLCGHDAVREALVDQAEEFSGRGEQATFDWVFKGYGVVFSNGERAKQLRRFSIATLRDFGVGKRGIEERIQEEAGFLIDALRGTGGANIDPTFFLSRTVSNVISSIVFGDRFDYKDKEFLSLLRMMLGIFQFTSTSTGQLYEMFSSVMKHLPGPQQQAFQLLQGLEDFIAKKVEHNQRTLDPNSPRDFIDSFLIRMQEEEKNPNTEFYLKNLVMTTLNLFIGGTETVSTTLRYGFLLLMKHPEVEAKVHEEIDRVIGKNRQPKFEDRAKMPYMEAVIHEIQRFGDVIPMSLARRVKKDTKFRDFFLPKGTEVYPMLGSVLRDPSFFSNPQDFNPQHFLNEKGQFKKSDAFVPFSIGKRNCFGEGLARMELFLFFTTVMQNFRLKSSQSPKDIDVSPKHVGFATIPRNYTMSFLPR
Sequence of UniProt P08682 (whole entry, looked up): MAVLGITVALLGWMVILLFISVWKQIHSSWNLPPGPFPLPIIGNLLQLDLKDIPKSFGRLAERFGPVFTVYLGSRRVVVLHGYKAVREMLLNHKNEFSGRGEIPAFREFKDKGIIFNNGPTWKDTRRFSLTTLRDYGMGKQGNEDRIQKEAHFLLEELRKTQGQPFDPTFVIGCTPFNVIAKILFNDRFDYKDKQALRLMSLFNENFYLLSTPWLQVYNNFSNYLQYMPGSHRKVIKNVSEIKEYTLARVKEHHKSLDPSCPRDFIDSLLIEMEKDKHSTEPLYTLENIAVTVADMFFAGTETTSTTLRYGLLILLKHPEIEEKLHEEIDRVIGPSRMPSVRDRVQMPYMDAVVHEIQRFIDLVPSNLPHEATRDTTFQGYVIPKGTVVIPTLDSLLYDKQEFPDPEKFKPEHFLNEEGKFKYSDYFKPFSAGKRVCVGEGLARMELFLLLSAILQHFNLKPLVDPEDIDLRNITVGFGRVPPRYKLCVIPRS
Sequence of UniProt P05182 (whole entry, looked up): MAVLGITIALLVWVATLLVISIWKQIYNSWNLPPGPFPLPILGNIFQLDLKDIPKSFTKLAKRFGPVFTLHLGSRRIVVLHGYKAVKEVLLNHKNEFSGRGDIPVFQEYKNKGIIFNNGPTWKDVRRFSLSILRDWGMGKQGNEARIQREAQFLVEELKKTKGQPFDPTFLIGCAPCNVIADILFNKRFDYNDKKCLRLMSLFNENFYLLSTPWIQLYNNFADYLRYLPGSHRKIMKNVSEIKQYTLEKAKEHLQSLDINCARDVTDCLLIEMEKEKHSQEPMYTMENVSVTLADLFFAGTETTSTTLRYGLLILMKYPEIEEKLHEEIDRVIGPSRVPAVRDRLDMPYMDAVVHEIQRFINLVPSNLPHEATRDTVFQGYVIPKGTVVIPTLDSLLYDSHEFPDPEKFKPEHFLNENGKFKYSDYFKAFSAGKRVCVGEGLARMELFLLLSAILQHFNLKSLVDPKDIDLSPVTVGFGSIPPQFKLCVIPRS
Sequence of UniProt Q16696 (whole entry, looked up): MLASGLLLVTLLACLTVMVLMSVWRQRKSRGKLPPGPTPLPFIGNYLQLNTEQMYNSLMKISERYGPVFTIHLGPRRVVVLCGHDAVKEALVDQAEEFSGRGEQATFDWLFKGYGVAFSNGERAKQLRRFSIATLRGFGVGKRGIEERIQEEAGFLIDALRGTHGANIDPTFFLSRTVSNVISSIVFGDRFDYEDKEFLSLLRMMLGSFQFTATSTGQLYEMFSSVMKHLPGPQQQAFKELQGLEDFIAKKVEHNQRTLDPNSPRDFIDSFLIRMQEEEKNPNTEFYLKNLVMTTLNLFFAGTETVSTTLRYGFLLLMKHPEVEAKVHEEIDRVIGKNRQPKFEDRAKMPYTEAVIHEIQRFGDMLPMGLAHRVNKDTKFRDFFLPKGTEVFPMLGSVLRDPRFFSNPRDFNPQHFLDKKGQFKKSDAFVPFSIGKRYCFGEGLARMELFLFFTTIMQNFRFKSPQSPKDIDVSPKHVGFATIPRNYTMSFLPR
Sequence of UniProt P08183 (whole entry, looked up): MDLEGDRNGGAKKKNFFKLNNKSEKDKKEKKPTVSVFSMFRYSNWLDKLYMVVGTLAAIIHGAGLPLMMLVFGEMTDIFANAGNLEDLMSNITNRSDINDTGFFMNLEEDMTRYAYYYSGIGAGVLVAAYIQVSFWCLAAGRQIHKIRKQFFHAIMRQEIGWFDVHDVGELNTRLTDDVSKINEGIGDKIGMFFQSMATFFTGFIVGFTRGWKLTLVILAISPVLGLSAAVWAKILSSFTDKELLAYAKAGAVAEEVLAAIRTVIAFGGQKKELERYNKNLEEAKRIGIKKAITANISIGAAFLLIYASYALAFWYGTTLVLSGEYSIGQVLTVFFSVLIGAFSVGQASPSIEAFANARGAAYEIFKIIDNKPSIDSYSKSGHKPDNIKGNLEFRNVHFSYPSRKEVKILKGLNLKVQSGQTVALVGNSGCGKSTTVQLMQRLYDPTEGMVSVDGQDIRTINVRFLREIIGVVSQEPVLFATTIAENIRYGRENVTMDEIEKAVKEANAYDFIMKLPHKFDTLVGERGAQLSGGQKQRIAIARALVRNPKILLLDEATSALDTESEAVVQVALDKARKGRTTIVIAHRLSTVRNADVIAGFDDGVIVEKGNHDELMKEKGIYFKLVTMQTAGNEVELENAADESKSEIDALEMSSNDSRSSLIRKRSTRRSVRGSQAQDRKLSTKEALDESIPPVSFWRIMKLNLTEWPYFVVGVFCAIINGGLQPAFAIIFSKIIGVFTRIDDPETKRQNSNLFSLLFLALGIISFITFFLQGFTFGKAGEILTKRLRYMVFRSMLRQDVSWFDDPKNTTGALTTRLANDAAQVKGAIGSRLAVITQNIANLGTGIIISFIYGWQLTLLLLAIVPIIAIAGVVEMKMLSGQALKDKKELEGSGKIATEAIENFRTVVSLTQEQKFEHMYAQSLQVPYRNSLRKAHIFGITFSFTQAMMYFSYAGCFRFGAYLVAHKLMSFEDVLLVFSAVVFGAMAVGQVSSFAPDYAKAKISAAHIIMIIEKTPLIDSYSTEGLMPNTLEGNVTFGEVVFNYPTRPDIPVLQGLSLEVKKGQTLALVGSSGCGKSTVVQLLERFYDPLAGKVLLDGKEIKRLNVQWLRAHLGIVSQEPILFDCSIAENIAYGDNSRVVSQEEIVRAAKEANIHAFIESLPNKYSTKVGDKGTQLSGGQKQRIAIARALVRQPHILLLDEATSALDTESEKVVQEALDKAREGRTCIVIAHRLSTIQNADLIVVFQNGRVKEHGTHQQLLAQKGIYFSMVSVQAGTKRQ
Sequence of UniProt P14780 (whole entry, looked up): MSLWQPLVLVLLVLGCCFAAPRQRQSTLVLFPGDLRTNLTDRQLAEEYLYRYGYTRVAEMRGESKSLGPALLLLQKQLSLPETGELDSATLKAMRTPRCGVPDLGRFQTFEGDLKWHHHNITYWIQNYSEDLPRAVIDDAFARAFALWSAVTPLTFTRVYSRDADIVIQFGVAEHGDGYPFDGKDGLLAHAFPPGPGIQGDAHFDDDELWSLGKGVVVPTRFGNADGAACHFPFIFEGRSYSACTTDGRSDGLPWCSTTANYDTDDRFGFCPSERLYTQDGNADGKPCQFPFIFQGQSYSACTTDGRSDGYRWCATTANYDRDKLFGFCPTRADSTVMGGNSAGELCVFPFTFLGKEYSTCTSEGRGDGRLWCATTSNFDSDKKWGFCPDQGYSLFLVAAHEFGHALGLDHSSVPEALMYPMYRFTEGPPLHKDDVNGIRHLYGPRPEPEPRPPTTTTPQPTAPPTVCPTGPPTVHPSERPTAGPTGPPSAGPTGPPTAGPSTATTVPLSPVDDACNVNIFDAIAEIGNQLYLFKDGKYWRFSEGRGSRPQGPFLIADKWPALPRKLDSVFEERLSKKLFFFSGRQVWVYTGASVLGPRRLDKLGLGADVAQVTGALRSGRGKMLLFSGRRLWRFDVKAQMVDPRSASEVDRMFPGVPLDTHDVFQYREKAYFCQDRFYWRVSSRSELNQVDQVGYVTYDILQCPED

| Compound | target or system | test | system | conditions | how to read | measurement | result |
| --- | --- | --- | --- | --- | --- | --- | --- |
| CC1=C(/C=C/C(C)=C/C=C/C(C)=C/C=C/C=C(C)/C=C/C=C(C)/C=C/C2=C(C)C[C@H](O)CC2(C)C)C(C)(C)C[C@H](O)C1 | Albumin (ALB, Homo sapiens, UniProt P02768) | binding, SPR | – | – | – | Kd | 1.3 µM |
| Clc1ccc(-c2cc(Cl)c(Cl)cc2Cl)cc1Cl | Aryl hydrocarbon receptor (AHR, Delphinapterus leucas, UniProt Q95LD9) | binding, competitor | – | in vitro expressed receptor, with: [3H]TCDD | – | Ki | 1.44 µM |
| O=c1cc(-c2ccccc2)oc2ccc3ccccc3c12 | NR1I2 | reporter gene, agonist, luciferase | COS-7 | 24 h | reference: DMSO | fold induction | 2.8 ± 0.4 fold |
| CC(C)C[C@@H]1NC(=O)[C@H](C)NC(=O)[C@H](CCCCN)NC(=O)[C@H](C)NC(=O)[C@@H](NC(=O)CNC(=O)[C@H](CCCCN)NC(=O)[C@H](CC(C)C)NC(=O)[C@H](CC(C)C)NC(=O)[C@H](CC(=O)O)NC(=O)[C@H](CCCCN)NC(=O)[C@H](Cc2ccccc2)NC(=O)CN)CSCc2ccc(cc2)-c2ccc(cc2)CSC[C@@H](C(=O)N[C@H](C(=O)N[C@@H](CC(C)C)C(=O)N[C@@H](Cc2ccccc2)C(N)=O)C(C)C)NC(=O)[C@H](CCCCN)NC(=O)[C@H](C(C)C)NC1=O | trypsin | proteolytic stability, substrate, HPLC | – | 0.025 nM, pH 7.4, with: trypsin 0.5 ng/µL | – | half-life | 3.08 h |
| CC(C)C[C@H](NC(=O)CNC(=O)[C@H](CC(C)C)NC(=O)[C@@H]1CCCN1C(=O)CNC(=O)[C@H](Cc1ccccc1)NC(=O)Cc1ccc2ccccc2c1)C(=O)N[C@@H](CCCNC(=N)N)C(=O)N[C@@H](CO)C(=O)N[C@@H](CCCCN)C(=O)O | MMP9 (Homo sapiens, UniProt P14780) | protease stability, substrate, HPLC | – | 500 µM, pH 7.5, 37 °C, with: MMP9 10 U | – | time to complete digestion | 12 h |
| C#CCOCCc1ccc2ccccc2c1 | CYP2A6 | binding, absorbance | – | pH 7.4 | – | Kd | 19 µM |
| Clc1ccc(-c2cc(Cl)c(Cl)cc2Cl)cc1Cl | PXR (polar bear) | reporter gene, agonist, luciferase | COS-7 | 24 h | reference: DMSO | fold induction | 1.4 ± 0.1 fold |
| C[C@@H]1CC[C@]2(C(=O)O)CC[C@]3(C)C(=CC[C@@H]4[C@@]5(C)CC[C@H](O)[C@@](C)(CO)[C@@H]5CC[C@]43C)[C@@H]2[C@]1(C)O | CYP3A4/5 | midazolam 1'-hydroxylation, inhibitor, probe cocktail incubation | pooled human liver microsomes | 50 µM, 20 min, with: midazolam 1.535 µM | – | remaining activity | 84.5% |
| C=C(C)[C@@H]1CCC(C)=C[C@H]1c1c(O)cc(CCCCC)cc1O | CYP2A6 | cotinine to COX formation, inhibitor | microsomes of overexpressing HEK293 cells | 10 µM, 30 min, pH 7.4, with: cotinine 1 mM | – | inhibition | 25% |
| c1cn[nH]c1 | Cytochrome P450 2E1 (Cyp2e1, Rattus norvegicus, UniProt P05182) | enzyme activity, inhibitor | liver microsomes | 10 min, 37 °C, with: chlorzoxazone | – | Ki | 35.5 µM |
| Clc1cc(Cl)c(-c2ccc(Cl)c(Cl)c2Cl)cc1Cl | PXR (polar bear) | reporter gene, agonist, luciferase | COS-7 | 24 h | reference: DMSO | fold induction | 1.1 ± 0.1 fold |
| O=C(O)COc1ccc(C(=O)c2cccs2)c(Cl)c1Cl | CYP2C8 human | M4 formation from THC, inhibitor | human liver microsomes | 50 µM, six individual donors, with: THC 2 µM | – | inhibition | no effect |
| C#CCOc1ccc2ccccc2c1 | Cytochrome P450 2A13 (Homo sapiens, UniProt Q16696) | binding, absorbance | – | pH 7.4 | – | Kd | 0.42 µM |
| N#Cc1ccc(N2N=C3c4ccc(C(=O)N5CCC(O)CC5)nc4CC[C@@H]3[C@@H]2C2CCCC2)cc1Cl | ABCG2 (Homo sapiens, UniProt Q9UNQ0) | transporter uptake, inhibitor | – | – | – | IC50 | 1.32 µM |
| Clc1cc(Cl)c(-c2cccc(Cl)c2Cl)cc1Cl | NR1I2 | reporter gene, agonist, luciferase | COS-7 | 24 h | reference: DMSO | fold induction | 2.4 ± 0.4 fold |
| CN[C@@](C)(C[18F])C(=O)O | – | – | SCID mouse U87 xenograft, liver | 30 min, post injection | – | tissue uptake | 8.9 ± 1.6 %ID/g |
| C[C@@H]1CC[C@H]2[C@@H](C)C(=O)O[C@@H]3O[C@@]4(C)CC[C@@H]1[C@]32OO4 | ABCB1 (Homo sapiens, UniProt P08183) | calcein accumulation, inhibitor, flow cytometry | CEM/ADR5000 | concentration not given, 30 min | reference: untreated | maximum effect | 114 ± 2.85% |
| c1c[nH]nn1 | CYP2E1 (Oryctolagus cuniculus, UniProt P08682) | spectral titration | – | pH 7.4, 25 °C, first catalytic site | – | Kd | 330 µM |

Some of these lines once more:
| Compound | target or system | test | system | conditions | how to read | measurement | result |
| --- | --- | --- | --- | --- | --- | --- | --- |
| CN[C@@](C)(C[18F])C(=O)O | – | – | SCID mouse U87 xenograft, liver | 30 min, post injection | – | tissue uptake | 8.9 ± 1.6 %ID/g |
| C[C@@H]1CC[C@H]2[C@@H](C)C(=O)O[C@@H]3O[C@@]4(C)CC[C@@H]1[C@]32OO4 | ABCB1 (Homo sapiens, UniProt P08183) | calcein accumulation, inhibitor, flow cytometry | CEM/ADR5000 | concentration not given, 30 min | reference: untreated | maximum effect | 114 ± 2.85% |
